Published values pooled from the literature.
Protocols differ between the studies behind these lines. Several values in a cell are separate wells, animals, samples, runs or records. ± gives the spread as reported.

| SMILES | tested on | test | system | setting | how to read | measurement | result |
| --- | --- | --- | --- | --- | --- | --- | --- |
| O=C1CCC(N2Cc3cc(C(=O)O)c(F)cc3C2=O)C(=O)N1 (stereo not drawn) | – | – | cynomolgus monkey, male | oral, 0.3 mg/kg parent drug, 1 h | – | plasma concentration | 4.5 ± 1.3 ng/mL |
| Nc1ncc(-c2cc(-c3cnn(CC(F)(F)F)c3)ncc2F)nc1C(=O)NC1CNCC(F)C1 (stereo not drawn) | ADCK3 | KINOMEscan | – | 1 µM | relative to: DMSO control | remaining binding | 61% |
| CCCCCCCOc1ccc(CC[C@](N)(CO)COP(=O)(O)O)cc1C(F)(F)F | – | – | healthy men, urine | oral, 0.25 mg once daily, day 1, fed state | relative to: dose | urinary excretion (0-24 h) | 0% |
| C=Cc1ccccc1[B-]12OC(=O)C(c3ccccc3)=N[N+]1=Cc1ccc(N(CC)CC)cc1O2 (stereo not drawn) | – | – | toluene | – | – | molar absorption coefficient | 57000 M⁻¹ cm⁻¹ |
| CCCCCCCC(=O)[O][Pt]([Cl])([Cl])[O]C(=O)CCCCCCC.N.N | – | ICP-MS, measured: platinum | nude mice, blood | intravenous, 1.95 mg/kg | – | distribution half-life | 3 min and 3.18 min |
| O=C(O)CCCOc1ccc([18F])cc1-c1cc(-c2ccccc2C(F)(F)F)n(-c2ccccc2)n1 | – | OLINDA/EXM extrapolation from mouse | human adult, osteogenic cells | – | – | absorbed radiation dose | 10.9 µGy/MBq |
| O=C(Nc1cnccc1-c1ccc([18F])nc1)c1ccnc(NC(=O)C2CC2)c1 | – | ex vivo gamma counting | GSK-3β transgenic mice, early-stage, caudate nucleus | intravenous, 120 min, added: tariquidar 15 mg/kg iv | – | mean SUV | 0.069 |
| CN(O)C(=O)CCC(=O)NCCCN(CCCCN(CCCNC(=O)CCC(=O)N(C)O)C(=O)CCC(=O)N(C)O)C(=O)CCC(=O)N(C)O.[89Zr] | – | radio-TLC | aqueous buffer | 1 d, pH 5, 37 °C, 89Zr-labelled complex, added: DTPA 100-fold excess | – | intact complex | 98.7 ± 0.5% |
| CC(C)[C@H](NC(=O)[C@H](Cc1c[nH]c2ccccc12)NC(=O)[C@H](CCCNC(=N)N)NC(=O)[C@H](CCCNC(=N)N)NC(=O)[C@@H](NC(=O)[C@@H](NC(=O)[C@H](CCCNC(=N)N)NC(=O)[C@@H](NC(=O)[C@@H](NC(=O)[C@H](CCCNC(=N)N)NC(=O)[C@H](CCCNC(=N)N)NC(=O)[C@@H](NC(=O)[C@H](Cc1c[nH]c2ccccc12)NC(=O)[C@H](CCCNC(=N)N)NC(=O)[C@H](CCCNC(=N)N)NC(=O)[C@@H](NC(=O)[C@H](CCCNC(=N)N)NC(=O)[C@H](CCCNC(=N)N)NC(=O)[C@@H](NC(=O)[C@H](Cc1c[nH]c2ccccc12)NC(=O)[C@H](CCCNC(=N)N)NC(=O)[C@@H](N)CCCNC(=N)N)C(C)C)C(C)C)C(C)C)C(C)C)C(C)C)C(C)C)C(C)C)C(=O)N[C@@H](CCCNC(=N)N)C(=O)N[C@@H](CCCNC(=N)N)C(=O)O | – | – | CD1 mouse, plasma | intravenous, 15 mg/kg, 24 h, [14C]-labelled compound | – | total CO2 | 23.3 mEq/L |
| C=CC(=O)Nc1cc(Nc2nccc(-c3c[nH]c4ccccc34)n2)c(OC)cc1N(C)CCN(C)C | – | storage stability | human plasma | 24 h, on ice, low QC level | – | recovery | 84.9% |
| C=C(NC(=O)c1csc(-c2nc3c(cc2O)-c2nc(cs2)C(=O)NC(C(C)O)C(=O)NC(=C(C)OC)c2nc(cs2)C(=O)NC2c4nc(cs4)C(=O)NC(COC(=O)c4c5c6c(cccc6n4O)COC(=O)C(OC4CC(C)(O)C(N(C)C)C(C)O4)C2OC5)c2nc-3cs2)n1)C(N)=O (stereo not drawn) | – | – | ICR mice, Streptococcus pneumoniae ATCC 49169 infected, immunocompromised, blood | intravenous, 4 mg/kg/day twice daily | – | AUC(0-inf) | 235 ng·h/mL |
| CCCC[C@H](NC(=O)COCCOCCNC(=O)CN1CCN(CC(=O)O)CCN(CC(=O)O)CC1)C(=O)N[C@H]1CC(=O)NCCCC[C@@H](C(N)=O)NC(=O)[C@H](Cc2c[nH]c3ccccc23)NC(=O)[C@H](CCCNC(=N)N)NC(=O)[C@@H](Cc2ccccc2)NC(=O)[C@H](Cc2c[nH]cn2)NC1=O [fluorine-18 labelled] | – | – | C57 mice B16-F10 melanoma, blood | intravenous, 0.37 MBq, 2 h | – | tissue uptake | 0.17 ± 0.24 %ID/g |
| CC(C)(C)NCC(SS(=O)(=O)O)c1ccccc1 (stereo not drawn) | – | – | Swiss Webster mice, Schistosoma mansoni-infected | 100 mg/kg single dose on day 42 post-infection, perfusion day 56 post-infection | – | body weight | 36 g |
| CCCCN1C(=O)c2cccc3c(NCCCCCCN4CCOCC4)ccc(c23)C1=O | – | – | DMF | – | – | molar extinction coefficient | 13500 M⁻¹ cm⁻¹ |
| C/C(N)=N/C(=N\S(=O)(=O)c1ccc(C(F)(F)F)cc1)N1C[C@H](c2ccccc2)C(c2ccc(Cl)cc2)=N1 | – | – | Beagle dog, plasma | oral, 24 mg/kg | – | AUC(0-inf) | 28400 ng·h/mL |
| CCCCN1C(=O)c2cccc3c(NCCCCCCCCCCN4CCOCC4)ccc(c23)C1=O | – | – | water | pH 6.0 | – | molar extinction coefficient | 11400 M⁻¹ cm⁻¹ |
| CCC1C=C(C)C(O)C(C)CC(OC)C2OC(O)(C(=O)C(=O)N3CCCCC3C(=O)OC(C(C)=CC3CCC(O)C(OC)C3)C(C)C(O)CC1=O)C(C)CC2OC (stereo not drawn) | – | – | mouse C57BL/6 | topical, dose not given, 24 h | – | blood concentration | not detected |

| SMILES | tested on | test | system | setting | how to read | measurement | result |
| --- | --- | --- | --- | --- | --- | --- | --- |
| CCC(CC)CNC(=N)NC(=N)NCCCCCCNC(=N)NC(=N)NCC(CC)CC | – | metabolic stability | dog, hepatocytes | 1 µM | – | hepatocyte CLint | 9.13 µL/min/10⁶ cells |
| CCC(CC)n1c(Cc2cccs2)nc2cc(C(=O)NC(CC(=O)O)CC(C)C)ccc21 (stereo not drawn) | – | echocardiography, measured: LVEF, FS | mouse | dose not given, 2 wk | – | cardiac function | no effect |
| Cc1cccc(Cn2ncc3c4cc(F)c(CN(C)C)cc4n(C)c3c2=O)n1 | – | – | Sprague-Dawley rat, plasma | oral, 10 mg/kg | – | Vd/F | 49.3 L/kg |
| CCC(C(=O)Nc1ccc(C(N)=O)c(F)c1)n1cc(OC)c(-c2cc(Cl)ccc2-n2cc(C(F)(F)F)nn2)cc1=O (stereo not drawn) | – | – | healthy male humans | 50 mg, IR formulation, fasted | – | mild adverse events | 6.7% |
| CN([O-])C(=O)CN1CCN(CC(=O)N(C)[O-])CCN(Cc2ccccn2)CC1.[89Zr+4] | – | – | mouse, pancreas | intravenous, 4 h | – | tracer uptake | 0.65 %ID/g |
| C[C@@H](Nc1c(-c2c(F)cc(C#N)cc2F)c(Cl)nc2ncnn12)C(C)(C)C | – | ELISA | 5XFAD transgenic mice, hippocampus | intraperitoneal, 1 mg/kg twice weekly, 4 weeks | – | insoluble Aβ42 level | decreased |
| CN1CCCNC(=O)c2cccc(c2)C(=O)NCCCN(C)CCCNc2cccc3c2C(=O)c2cccc(c2C3=O)NCCC1 | – | – | nude mice, serum | dose not given, 10 days | – | AST | 153 ± 16.2 U/L |
| CCCCN1C(=O)c2cccc3c(NCCCCCN4CCOCC4)ccc(c23)C1=O | – | – | water | pH 6.0 | – | molar extinction coefficient | 11600 M⁻¹ cm⁻¹ |
| C=C[C@]1(C)C[C@@H](OC(=O)CSc2ccc(NC(=O)c3ccco3)cc2)[C@]2(C)[C@H](C)CC[C@]3(CCC(=O)[C@H]32)[C@@H](C)[C@@H]1O | – | – | M. gallisepticum-infected chickens, plasma | intramuscular, 5 mg/kg single dose | – | peripheral volume (V2/F) | 1.49 L/kg |
| Cc1ncsc1-c1ccc(C(C)NC(=O)C2CC(O)CN2C(=O)C(NC(=O)CCCCCCCCCCN2CCCC(Nc3ncc(Cl)c(Nc4ccccc4S(=O)(=O)C(C)C)n3)C2)C(C)(C)C)cc1 (stereo not drawn) | 22Rv1 | RNA-seq, measured: MZF1-AS1 | – | concentration not given | relative to: DMSO | log2 fold change | -1.2 |
| COC1CN([C@H]2CC[C@H]([C@@]3(C)Oc4c(Cl)cc(C(=O)NCc5c(SC)cc(C)[nH]c5=O)c(C)c4O3)CC2)C1 | – | RNA-seq, measured: PCGF2 | human, whole blood | dose not given, 24 h | relative to: pretreatment baseline | log2 fold change | 2.33 |
| OC1(C(F)(F)F)CCN(c2nc(Nc3ccnc(C(F)(F)F)c3)nc(-c3cccc(C(F)(F)F)n3)n2)C1 (stereo not drawn) | – | – | Sprague-Dawley rat, both sexes, plasma | oral gavage, 5 mg/kg, day 1 | – | Cmax | 361 ± 40.3 ng/mL |
| COCC1CN(C2CCN(c3cc(OC)c(Nc4ncc(Br)c(Nc5ccc6c(c5P(C)(C)=O)OCCO6)n4)cc3C)CC2)C1 | – | – | EGFR-mutant NSCLC patients, plasma | oral, 30 mg multiple doses, geometric mean | – | Cmin | 242 ng/mL |
| C=CC(=O)Nc1cccc(Cn2ncc3cnc(Nc4cnn(CCOC)c4)nc32)c1 | CSNK2A2 human | binding, KINOMEscan | – | 100 nM | lower = stronger binding | percent of control | 23% |
| CCCCN1C(=O)c2cccc3c(NCCN4CCOCC4)ccc(c23)C1=O | – | – | DMF | – | – | molar extinction coefficient | 7620 M⁻¹ cm⁻¹ |
| C=CC(=O)N1CCCC(n2c(=O)c3ncccc3n(Cc3ccc(Oc4ccccc4)cc3)c2=O)C1 (stereo not drawn) | – | – | BALB/c mice, male, plasma | intraperitoneal, 200 mg/kg, 4 h | – | plasma concentration | 1280 ng/mL and 2640 ng/mL and 2990 ng/mL |

For quick reference, copied from above:
| SMILES | tested on | test | system | setting | how to read | measurement | result |
| --- | --- | --- | --- | --- | --- | --- | --- |
| CCCCN1C(=O)c2cccc3c(NCCCCCN4CCOCC4)ccc(c23)C1=O | – | – | water | pH 6.0 | – | molar extinction coefficient | 11600 M⁻¹ cm⁻¹ |
| O=C(Nc1cnccc1-c1ccc([18F])nc1)c1ccnc(NC(=O)C2CC2)c1 | – | ex vivo gamma counting | GSK-3β transgenic mice, early-stage, caudate nucleus | intravenous, 120 min, added: tariquidar 15 mg/kg iv | – | mean SUV | 0.069 |
| C/C(N)=N/C(=N\S(=O)(=O)c1ccc(C(F)(F)F)cc1)N1C[C@H](c2ccccc2)C(c2ccc(Cl)cc2)=N1 | – | – | Beagle dog, plasma | oral, 24 mg/kg | – | AUC(0-inf) | 28400 ng·h/mL |
